Results gathered from unrelated publications.
Lines come from different studies, so protocols differ. Numbers after ± are the reported error.

| Structure (SMILES) | tested on | assay | test system | conditions | how to read | quantity | result |
| --- | --- | --- | --- | --- | --- | --- | --- |
| C[C@H]1Oc2cc(cnc2N)-c2c(nn(C)c2C#N)CN(C)C(=O)c2ccc(F)cc21 | Ba/F3 EML4-ALK v3, no mutation | cell viability |  |  |  | Emax | 99.5% |
| CCN1CCN(c2cc(N3CCN(CC)CC3)nc(NCCNc3ccnc4cc(Cl)ccc34)n2)CC1 | COS-7 | WST-8 |  | 20 µM, 24 h, 0.1% DMSO, unit not given | relative to: vehicle control | metabolic activity | 0.75 ± 0.23 |
| CC(C)NCC(O)c1ccc(O)c(O)c1 (stereo not drawn) | mouse ventricular cardiomyocytes |  |  | dose not given, 0.275 s |  | sarcomere length | 1.8 µm |
| CC[C@H](C)n1cc(C)c2c(C(=O)NCc3c(C)cc(C)[nH]c3=O)cc(-c3ccc(N4CCNCC4)nc3)cc21 | OCI-Ly1 |  |  | 0.5 µM, 120 h |  | viability | 152% |
| CN1CCN(c2ccc3[nH]c(-c4ccc5[nH]c(-c6ccc(C(F)(F)F)cc6)nc5c4)nc3c2)CC1 | 786-0 | cell growth, NCI-60 SRB |  | 10 µM, 48 h |  | growth percent | 69.6% |
| CC(=O)c1c(C)cc2cc(O)cc(O[C@@H]3O[C@H](CO)[C@@H](O)[C@H](O)[C@H]3O)c2c1O | HepaRG co-cultured with HK-2 | MTT |  | 33.33 µM, 48 h | relative to: untreated control | cell viability | 93.1 ± 26.5% |
| CCn1cc(-c2cc(Cn3ccnc3)cc3c2CCN([C@H](c2cc(OC)ccn2)C2CC2)C3=O)c(C(F)(F)F)n1 | HCC1954 | cell growth, inhibitor |  | 120 h |  | EC50 | 3.31 µM |
| Cc1cc(O)c2c(c1)C(=O)c1cc(O)cc(O)c1C2=O | HepaRG co-cultured with HK-2 | MTT |  | 133.33 µM, 48 h | relative to: untreated control | cell viability | 27.3 ± 3.11% |
| Cc1[nH]c2ccccc2c1CCNCc1ccc(/C=C/C(=O)NO)cc1 | OCI-Ly1 |  |  | 0.1 µM, 120 h |  | viability | 0.864% |
| C=CCNC1=C2C[C@@H](C)C[C@H](OC)[C@H](O)[C@@H](C)/C=C(\C)[C@H](OC(N)=O)[C@@H](OC)/C=C\C=C(/C)C(=O)NC(=CC1=O)C2=O | iPSC-derived cardiomyocytes | concentration-response fit |  | concentration not given | relative to: vehicle | fitted bottom MyBP-C level | 16.5% |
| CC/C(=N\NC(=O)NCc1cccc(O)c1)c1ccc(O)c(C)c1O | SK-OV-3 | gene expression, microarray, measured: KRT80 |  | 10 µM, 24 h | relative to: DMSO | log ratio | 3.59 |
| O=c1ncccn1[C@@H]1O[C@H](CO)[C@@H](O)[C@H]1O | OCI-Ly1 |  |  | 0.5 µM, 120 h |  | viability | 146% |
| COc1cnc2cccc(N3CCc4c(cc(Cn5ccnc5C)cc4-c4cn(C)nc4C(F)(F)F)C3=O)c2c1 | KMS-11 | cell growth, inhibitor |  | 120 h |  | EC50 | > 30 µM |
| COc1cc2ncnc(Nc3ccc(Oc4ccccc4)cc3C)c2cc1OC | LoVo (KRAS G13D) | cell growth, resazurin |  | 1 µM, 72 h, with: 0 nM trametinib |  | viability | 88.6% |
| O=C(O)CNC(=O)C(=O)O | OCI-Ly1 |  |  | 0.1 µM, 120 h |  | viability | 181% |
| CC(C)C[C@H](NC(=O)C[C@H](O)[C@H](CC(C)C)NC(=O)[C@H](Cc1c[nH]cn1)NC(=O)CNC(=O)[C@@H](NC(=O)[C@H](C)NC(=O)[C@H](Cc1c[nH]c2ccccc12)NC(=O)[C@H](CCC(N)=O)NC(=O)[C@@H](Cc1ccccc1)NC(=O)COCCOCCNC(=O)CCC(C(=O)O)N1CCN(CC(=O)O)CCN(CC(=O)O)CCN(CC(=O)O)CC1)C(C)C)C(N)=O (stereo partly drawn) [lutetium-177 labelled] |  |  | BALB/c nu/nu mice, female, brain | 100 pmol, 30 min, time course 0.5 h, with: PA 300 µg |  | tissue uptake | 0.07 ± 0.03 %ID/g |
| O=C(O)C[C@H](O)C[C@H](O)/C=C/c1c(C2CC2)nc2ccccc2c1-c1ccc(F)cc1 | COS-7 |  |  | 30 µM, 24 h, 0.1% DMSO, unit not given | relative to: vehicle control | necrotic cells | 0.88 ± 0.16 |
| COc1cccc2c1C(=O)c1c(O)c3c(c(O)c1C2=O)C[C@@](O)(C(=O)CO)C[C@@H]3O[C@H]1C[C@H](N)[C@H](O)[C@H](C)O1 | HepG2 | CellTiter-Glo, measured: cellular ATP |  | 24 h, distribution mode 2 |  | point of departure | 0.166 µM |
| CCCCc1nc(Cl)c(CO)n1Cc1ccc(-c2ccccc2-c2nn[nH]n2)cc1 | human PBMC | RNA-seq, measured: AK4 mRNA |  | 10 µg/mL, 24 h | relative to: untreated control | log2 fold change | 1.8 |
| O=C(/C=C/C=C/C=C/C1CCCCC1)NC1=C[C@@](O)(/C=C/C=C/C=C/C(=O)NC2=C(O)CCC2=O)[C@@H]2O[C@@H]2C1=O | cl34 | cell growth, inhibitor, CellTiter-Glo luminescence |  | 78 h | relative to: day 0 cell count | GI50 | > 30 µM |
| CCOC(=O)Nc1cc(-c2ccc(C)c(NS(C)(=O)=O)c2)nn2c(C)nnc12 | OCI-Ly1 |  |  | 0.1 µM, 120 h |  | viability | 42.9% |
| CCCCN1C[C@H](O)[C@@H](O)[C@@H](O)[C@H]1CO | sample BB patient fibroblasts | GlcCer level lowering, LC-MS/MS, measured: GlcCer d18:1/24:1 |  | 216 h |  | IC50 | 34.7 µM |
| CCCC(=O)O | OCI-Ly1 |  |  | 0.5 µM, 120 h |  | viability | 165% |
| Cn1cc(-c2ccc(-c3cncc(Cl)c3N3CCC4(CCNC4=O)CC3)cc2)cn1 | COLO 205 | gene expression, microarray, measured: WWTR1 mRNA |  | concentration not given, 2 h | relative to: untreated cells | log2 fold change | -1.97 |
| C#CCCC1(CCC(=O)N2[C@H](c3ccc4c(c3)OCO4)c3[nH]c4ccccc4c3C[C@@H]2C(=O)OC)N=N1 | HeLa stably expressing GFP-LC3 |  |  | concentration not given, 4 h |  | LC3 puncta formation | inactive |
| Nc1ncnc2c1ncn2[C@@H]1O[C@H](CSCC[C@H](N)C(=O)O)[C@@H](O)[C@H]1O | OCI-Ly1 |  |  | 0.5 µM, 120 h |  | viability | 161% |
| C[C@H](CCC(=O)NCCS(=O)(=O)O)[C@H]1CC[C@H]2[C@@H]3CC[C@@H]4C[C@H](O)CC[C@]4(C)[C@H]3CC[C@]12C | rat PCK cystic cholangiocytes | cell confluence |  | 20 µM, 24 h | relative to: untreated | proliferation increase | 42% |
